# Measured values of several laboratories.
# Numbers after ± are the reported error.
# ESR1: Estrogen receptor (ESR1, Homo sapiens, UniProt P03372)
# Chain of UniProt P03372 (whole entry, looked up): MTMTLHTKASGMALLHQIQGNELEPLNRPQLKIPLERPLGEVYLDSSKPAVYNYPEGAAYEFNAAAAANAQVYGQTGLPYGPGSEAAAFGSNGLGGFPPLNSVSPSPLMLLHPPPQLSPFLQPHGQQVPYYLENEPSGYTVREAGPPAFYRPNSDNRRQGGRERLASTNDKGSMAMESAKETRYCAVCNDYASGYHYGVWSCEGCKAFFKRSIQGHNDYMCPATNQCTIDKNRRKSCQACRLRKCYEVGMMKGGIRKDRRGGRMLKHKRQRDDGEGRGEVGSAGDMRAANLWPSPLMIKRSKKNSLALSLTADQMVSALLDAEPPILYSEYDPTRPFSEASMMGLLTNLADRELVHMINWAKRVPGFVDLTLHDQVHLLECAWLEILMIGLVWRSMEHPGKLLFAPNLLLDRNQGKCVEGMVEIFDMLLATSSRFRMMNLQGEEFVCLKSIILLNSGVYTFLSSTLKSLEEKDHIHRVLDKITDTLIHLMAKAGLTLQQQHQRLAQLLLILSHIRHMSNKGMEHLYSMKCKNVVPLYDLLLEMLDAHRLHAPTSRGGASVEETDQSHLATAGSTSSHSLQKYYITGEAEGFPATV
# CDK2: Cyclin-dependent kinase 2 (CDK2, Homo sapiens, UniProt P24941)
# DRD3: D(3) dopamine receptor (DRD3, Homo sapiens, UniProt P35462)
# Chain of UniProt P35462 (whole entry, looked up): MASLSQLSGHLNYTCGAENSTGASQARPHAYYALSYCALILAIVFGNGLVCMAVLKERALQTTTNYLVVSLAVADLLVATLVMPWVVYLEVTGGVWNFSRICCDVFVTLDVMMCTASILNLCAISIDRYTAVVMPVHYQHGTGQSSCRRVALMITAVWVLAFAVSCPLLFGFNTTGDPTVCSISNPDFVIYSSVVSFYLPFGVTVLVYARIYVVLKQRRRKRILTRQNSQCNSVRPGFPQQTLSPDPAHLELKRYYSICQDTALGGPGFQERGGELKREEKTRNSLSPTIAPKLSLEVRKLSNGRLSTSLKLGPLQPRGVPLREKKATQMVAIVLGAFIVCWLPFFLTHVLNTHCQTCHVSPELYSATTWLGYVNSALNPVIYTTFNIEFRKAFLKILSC
# SLC10A1: Hepatic sodium/bile acid cotransporter (SLC10A1, Homo sapiens, UniProt Q14973)
# Chain of UniProt Q14973 (whole entry, looked up): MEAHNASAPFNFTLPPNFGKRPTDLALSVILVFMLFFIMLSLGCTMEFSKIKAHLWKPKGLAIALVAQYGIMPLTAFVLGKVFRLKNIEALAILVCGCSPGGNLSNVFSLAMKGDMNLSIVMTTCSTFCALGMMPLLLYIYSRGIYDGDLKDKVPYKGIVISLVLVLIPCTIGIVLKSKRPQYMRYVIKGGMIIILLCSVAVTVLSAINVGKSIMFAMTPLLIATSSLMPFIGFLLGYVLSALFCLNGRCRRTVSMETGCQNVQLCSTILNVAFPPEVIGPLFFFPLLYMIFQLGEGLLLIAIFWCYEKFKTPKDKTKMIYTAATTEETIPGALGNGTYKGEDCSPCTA
# CDK2 with cyclin A: Cyclin-dependent kinase 2, with cyclin A (CDK2, Homo sapiens, UniProt P24941)
SMILES,target,assay,system,conditions,quantity,value
O=C(O[C@@H]1Cc2c(O)cc(O)cc2O[C@@H]1c1ccc(O)c(O)c1)c1cc(O)c(O)c(O)c1,ESR1,"array formation, agonist",ERα-GFP PRL-HeLa,1 h,EC50,6.16 µM
Cc1nonc1OCCNc1cc(N2CCOCC2)ccc1[N+](=O)[O-],CDK2,binding,,,Kd,> 100 µM
CN(C)C(=O)c1c[nH]cc1S(=O)(=O)Nc1ccc(C(F)(F)F)c(Cl)c1,DRD3,"Go activation, antagonist, BRET",,together with: dopamine,IC50,> 100 µM
COc1ccc([C@@H]2Sc3ccccc3N(CCN(C)C)C(=O)[C@@H]2OC(C)=O)cc1,SLC10A1,"taurocholate uptake, inhibitor",NTCP-expressing HEK293,together with: 10 µM taurocholate,Ki,460 ± 232 µM
Cc1[nH]c(C)c(S(=O)(=O)Nc2ccc(NS(C)(=O)=O)c(Cl)c2)c1C(=O)N1CCC(F)(F)C1,DRD3,"Go activation, antagonist, BRET",,together with: dopamine,IC50,> 100 µM
O=C(Cn1nc(-c2cccc([N+](=O)[O-])c2)c2ccccc2c1=O)NCC1CCCO1 (centres unmarked),CDK2 with cyclin A,,,,Kd,> 100 µM
C=CCN(CC=C)C(=O)c1c(C)[nH]c(C)c1S(=O)(=O)Nc1ccc(C(F)(F)F)c(Cl)c1,DRD3,"β-arrestin recruitment, antagonist, PathHunter",,together with: dopamine EC80,IC50,> 100 µM
COc1ccc(-c2oc3c(CC=C(C)C)c(O[C@@H]4O[C@H](CO)[C@@H](O)[C@H](O)[C@H]4O)cc(O)c3c(=O)c2O)cc1,ESR1,"array formation, agonist",ERα-GFP PRL-HeLa,1 h,EC50,1.17 µM
COC(=O)c1ccc(NC(=O)CSc2nnc(-c3ccc(NC(C)=O)cc3)n2C)cc1,CDK2,binding,,,Kd,> 100 µM
Cc1[nH]c(C)c(S(=O)(=O)Nc2ccc(C(F)(F)F)c(Cl)c2)c1C(=O)N1CCNCC1,DRD3,"β-arrestin recruitment, antagonist, PathHunter",,together with: dopamine EC80,IC50,> 100 µM
COc1ccccc1NC(=O)CSc1nncn1C,CDK2,binding,,,Kd,> 100 µM
O=C1[C@H](CC[C@H](O)c2ccc(F)cc2)[C@@H](c2ccc(O)cc2)N1c1ccc(F)cc1,SLC10A1,"taurocholate uptake, inhibitor",NTCP-expressing HEK293,together with: 10 µM taurocholate,Ki,53.8 ± 3.3 µM
CCCC(=O)Nc1cc(C2CC2)[nH]n1,CDK2,"average of ITC, Octet and Thermofluor",,untagged protein,Kd,3.35 µM
Cc1ccc(NS(=O)(=O)c2c(C)[nH]c(C)c2C(=O)N2CCC(F)(F)C2)nc1Cl,DRD3,"β-arrestin recruitment, antagonist, PathHunter",,together with: dopamine EC80,IC50,> 100 µM
Cn1nc([N+](=O)[O-])nc1Oc1ccccc1C(=O)N1CCOCC1,CDK2 with cyclin A,,,,Kd,> 100 µM
O=C(c1c[nH]cc1S(=O)(=O)Nc1ccc(C(F)(F)F)c(Cl)c1)N1CCC(F)(F)C1,DRD3,"β-arrestin recruitment, antagonist, PathHunter",,together with: dopamine EC80,IC50,> 100 µM
O=c1cc(-c2ccc(O)cc2)oc2cc(O)c([C@@H]3O[C@H](CO)[C@@H](O)[C@H](O)[C@H]3O)c(O)c12,ESR1,"array formation, agonist",ERα-GFP PRL-HeLa,1 h,EC50,1.59 µM
C[C@]12C=CC(=O)C=C1CC[C@@H]1[C@@H]2[C@@H](O)C[C@@]2(C)[C@H]1CC[C@]2(O)C(=O)CO,SLC10A1,"taurocholate uptake, inhibitor",NTCP-expressing HEK293,together with: 10 µM taurocholate,Ki,335 ± 177 µM
COc1ccc(-c2cc(=O)c3c(O)cc(O)cc3o2)cc1,ESR1,"array formation, agonist",ERα-GFP PRL-HeLa,1 h,EC50,5.64 µM
COc1cc2ncnc(Nc3ccc(F)c(Cl)c3)c2cc1OCCCN1CCOCC1,SLC10A1,"taurocholate uptake, inhibitor",NTCP-expressing HEK293,together with: 10 µM taurocholate,Ki,250 ± 41 µM

# Some of these lines once more:
SMILES,target,assay,system,conditions,quantity,value
COC(=O)c1ccc(NC(=O)CSc2nnc(-c3ccc(NC(C)=O)cc3)n2C)cc1,CDK2,binding,,,Kd,> 100 µM
Cc1[nH]c(C)c(S(=O)(=O)Nc2ccc(C(F)(F)F)c(Cl)c2)c1C(=O)N1CCNCC1,DRD3,"β-arrestin recruitment, antagonist, PathHunter",,together with: dopamine EC80,IC50,> 100 µM
